Published values of several laboratories.
Parts stem from different laboratories: compare values within a part only. “And” joins repeats or separate records; there may be more than shown.

Set 1 — species: C57BL/6 CES1-/- mice, EL4 tumour; route: subcutaneous; dose: 0.3 mg/kg/day DON equivalent; time: 5 days; quantity: metabolite peak intensity
Structure (SMILES): CC(=O)N[C@@H](Cc1c[nH]c2ccccc12)C(=O)N[C@@H](CCC(=O)C=[N+]=[N-])C(=O)OC(C)C
UPLC-MS/MS metabolomics, refers to: gamma-glutamylglutamine; EL4 tumour; normalised to tissue mass: 3.66e+06 a.u. and 5.36e+06 a.u. and 5.02e+06 a.u. and 4.71e+06 a.u. and 5.07e+06 a.u. and 4.92e+06 a.u.
LC-MS/MS metabolomics, refers to: pantoate; EL4 tumour; higher = more metabolite: 1.61e+06 a.u. and 2.55e+06 a.u. and 3.56e+06 a.u. and 1.38e+06 a.u. and 4.68e+06 a.u. and 721000 a.u.
UPLC-MS/MS, refers to: lactate; EL4, tumour; normalised to tissue mass; higher = more metabolite: 3.45e+09 a.u. and 2.87e+09 a.u. and 2.36e+09 a.u. and 2.95e+09 a.u. and 4.27e+09 a.u. and 3.23e+09 a.u.
LC-MS/MS metabolomics, refers to: prolylglycine; EL4 tumour; higher = more metabolite: 6.27e+07 a.u. and 3.82e+07 a.u. and 3.74e+07 a.u. and 5.7e+07 a.u. and 5.24e+07 a.u. and 5.73e+07 a.u.

Set 2 — medium: plasma; route: oral; quantity: plasma concentration, median
SMILES: COc1ccc(-c2c(Nc3ccccn3)[nH]c3c(C4=CCCCC4)c(-c4ccccc4)nn3c2=O)cc1
human patients; 400 mg once daily, 24 h, cycle 1: 1210 ng/mL
human patients; 400 mg once daily, 6 h, cycle 1: 2270 ng/mL
human patients; 200 mg once daily, 4 h, cycle 1: 5720 ng/mL
human patients; 150 mg once daily, 24 h, cycle 1: 3320 ng/mL
human patients; 400 mg once daily, 8 h, cycle 1: 2160 ng/mL
human patients; 200 mg once daily, 0.5 h, cycle 1: 6600 ng/mL
LC-MS/MS; human; 50 mg once daily, 4 h, cycle 1: 1490 ng/mL
human patients; 100 mg once daily, 8 h, cycle 1: 4680 ng/mL
LC-MS/MS; human; 50 mg once daily, 3 h, cycle 1: 1510 ng/mL
LC-MS/MS; human; 50 mg once daily, 2 h, cycle 1: 1160 ng/mL
LC-MS/MS; human; 200 mg twice daily, 2 h: 12800 ng/mL
human patients; 100 mg once daily, 6 h, cycle 1: 4960 ng/mL
human patients; 200 mg once daily, 6 h, cycle 1: 7300 ng/mL
LC-MS/MS; human; 50 mg once daily, 6 h, cycle 1: 1630 ng/mL
human patients; 400 mg once daily, 0.5 h, cycle 1: 2020 ng/mL

Set 3 — read-out: enzyme activity; mode: inhibitor; concentration: 0.5 µM; baseline: control; quantity: remaining activity
Target: Aurora kinase B (AURKB, Homo sapiens, UniProt Q96GD4)
UniProt Q96GD4, sequence (whole entry, looked up): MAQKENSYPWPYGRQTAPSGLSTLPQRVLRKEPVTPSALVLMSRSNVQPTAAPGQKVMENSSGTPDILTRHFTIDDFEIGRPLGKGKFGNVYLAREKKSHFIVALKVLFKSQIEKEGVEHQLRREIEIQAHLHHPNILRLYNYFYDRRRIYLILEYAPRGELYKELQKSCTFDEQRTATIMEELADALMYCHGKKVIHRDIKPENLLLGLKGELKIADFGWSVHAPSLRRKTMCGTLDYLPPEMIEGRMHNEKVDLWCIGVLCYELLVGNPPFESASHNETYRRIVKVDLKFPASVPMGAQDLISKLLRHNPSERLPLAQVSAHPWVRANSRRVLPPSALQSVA
CCc1[nH]c(-c2ccc(OC)cc2)nc1-c1ccncc1: 101%
CC(C)(C)n1nc(Cc2cccc3ccccc23)c2c(N)ncnc21: 94.8%
Cc1ccc(NC2=CC(=O)c3sc(C)nc3C2=O)cc1: 89.8%
Cc1cncc2cccc(S(=O)(=O)N3CCCN(C(=O)CN)C[C@@H]3C)c12: 34.9%
COc1cc(Nc2c(C#N)cnc3cc(OCCCN4CCN(C)CC4)c(OC)cc23)c(Cl)cc1Cl: 83.1%
O=C1Cc2c([nH]c3ccc([N+](=O)[O-])cc23)-c2ccccc2N1: 85.9%
COc1ccc(S(=O)(=O)N(CCO)c2ccccc2CN(C)CC=Cc2ccc(Cl)cc2)cc1: 106%
Nc1nccc(-c2c(-c3ccc(F)cc3)ncn2C2CCNCC2)n1: 103%
Nc1ncnc2c1cnn2-c1ccccc1: 99.2%
NC(=O)c1ccc(N(C(N)=O)c2c(F)cccc2F)nc1-c1ccc(F)cc1F: 91.3%
CSc1nc(-c2ccnc(N[C@@H](C)c3ccccc3)c2)c(-c2ccc(F)cc2)[nH]1 (racemic): 98.4%
O=C1NC(=O)C(c2c[nH]c3ccccc23)=C1c1c[nH]c2ccccc12: 89.3%
N#CC(=C(N)Sc1ccc(N)cc1)c1ccccc1C(F)(F)F: 99.8%
Fc1ccc(-c2nc3n(c2-c2ccncc2)CCS3)cc1: 98.5%
CC#CC(=O)Nc1cc2c(Nc3ccc(F)c(Cl)c3)ncnc2cn1: 101%
O=S(=O)(NCCNC/C=C/c1ccc(Br)cc1)c1cccc2cnccc12: 97.8%
Cc1cc(Nc2nc(-c3ccccc3)nc3ccccc23)n[nH]1: 52%
CCCC(=O)Oc1ccc2[nH]c(C(=O)c3cc4ccccc4[nH]3)cc2c1: 97.1%
CC(=O)c1ccc(N2CCOCC2)cc1O: 91.5%
Oc1ccc(Nc2nc(-c3ccc(Cl)cc3)cs2)cc1: 102%

Set 4 — read-out: binding; method: radioligand binding; concentration: 10 µM; quantity: inhibition
Target: Beta-1 adrenergic receptor (ADRB1, Homo sapiens, UniProt P08588)
UniProt P08588, sequence (whole entry, looked up): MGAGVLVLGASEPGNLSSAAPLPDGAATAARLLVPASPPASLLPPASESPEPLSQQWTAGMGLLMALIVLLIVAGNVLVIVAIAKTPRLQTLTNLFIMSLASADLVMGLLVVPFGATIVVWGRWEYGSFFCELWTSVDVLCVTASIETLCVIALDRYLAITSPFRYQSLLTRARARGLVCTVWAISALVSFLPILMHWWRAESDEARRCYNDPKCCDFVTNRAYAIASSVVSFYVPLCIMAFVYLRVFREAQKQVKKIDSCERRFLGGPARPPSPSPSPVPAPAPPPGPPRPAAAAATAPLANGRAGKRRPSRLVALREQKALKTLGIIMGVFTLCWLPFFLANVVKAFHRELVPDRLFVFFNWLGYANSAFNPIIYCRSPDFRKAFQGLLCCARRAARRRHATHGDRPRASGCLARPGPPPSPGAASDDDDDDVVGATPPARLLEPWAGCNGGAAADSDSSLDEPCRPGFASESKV
COc1nc2ccc([C@@](O)(c3ccccc3)C3CCN(C(C)=O)CC3)cc2c(Cl)c1Cc1ccc(-n2cccn2)cc1: 15.2%
C[C@H](NC(=O)c1cnc2n1[C@](C)(Cc1ccc(C#N)cc1)C(=O)N2c1cc(Cl)c(F)c(Cl)c1)C(=O)NC1(c2ccccn2)CC1: 24.1%
O=C(NC[C@@H]1[C@H]2CN(C(=O)OCc3cc(C(F)(F)F)cc(C(F)(F)F)c3)C[C@@H]12)c1ccc2[nH]nnc2c1: 13.3%
O=C(Nc1ccc(-n2nc(-c3cccnc3)cc2C(F)(F)F)cn1)c1ccc(-c2ccccc2)c(F)c1: 0.23%
CN1CCN(C(=O)C(C)(C)c2ccc(C(=O)Nc3cn4cc(-c5ccncc5)ccc4n3)cc2)CC1: -7.22%
Cc1cc(-n2nc(Cc3cc(F)cc(C(F)(F)F)c3)nc2C)ccc1C(N)=O: 11.8%
Cc1nc(N2CC[C@@H](O)C2)ncc1-c1cc(C(F)(F)F)cc2[nH]ncc12: -14.5%
CC1=C(C#N)[C@@H](c2ccc3[nH]nc(C)c3c2)C(C#N)=C(c2ccc(Cl)cc2)N1: 4.66%
CNC(=O)c1ccc(Nc2ncc(C(F)(F)F)c(NCc3nccnc3N(C)S(C)(=O)=O)n2)cc1: -0.83%
C[C@@H]1CN(c2cc(-c3nn(C)c4ccc(OC5(C)CC5)cc34)ncn2)C[C@H](C)O1: 5.75%
Cc1nc(Cc2cccc(C(F)(F)F)c2)sc1-c1ccc(C(N)=O)nc1: 7.56%
CCOCCn1cc(C(=O)Nc2ccc(-n3nc(-c4cccnc4)cc3C(F)(F)F)cn2)ccc1=O: -9.69%
COc1cc(-c2cn(C3CCc4ccccc4N(CC(F)(F)F)C3=O)nn2)ccc1-n1ccc(C)n1 (stereo not shown): 3.7%
CNC(=O)Nc1ccc2c(c1)[C@]1(CC2)OC(=O)N(CC(=O)N(Cc2ccc(F)cc2)[C@@H](C)C(F)(F)F)C1=O: -4.4%
CC(C)(O)c1cncc(-c2nc3ccc(F)cc3n2C2CC2)c1: 59.4%
O=C(Nc1cccnn1)N1CCC(=Cc2cccc(Oc3ccc(C(F)(F)F)cn3)c2)CC1: 16.5%
CN([C@@H]1CCc2c(CC(=O)O)c3cc(S(C)(=O)=O)ccc3n2C1)S(=O)(=O)c1ccc(F)cc1: -6.18%
CC(=O)N1CCC(c2ccc(C(=O)NC(=N)N)cc2C(F)(F)F)CC1: -9.29%
CC1=C(C#N)C(c2ccc3c(c2)c(NC(=O)c2ccccc2C)nn3C)C(C#N)=C(C)N1: -7.79%
COCc1nc2cnc3cc(-c4c(C)noc4C)c(OC[C@H]4CCNC4)cc3c2n1[C@H](C)c1ccccc1: 4.82%
O=C(Nc1cccnn1)N1CC(CC=Cc2cncc(Oc3ccc(C(F)(F)F)cn3)n2)C1: 1.97%
CC(=O)Nc1nc(CN2CCC[C@H](Cc3cc(C)nc(C)c3)C2)cs1: 4.41%
CN(C)C(=O)Cn1cc(-c2nc([C@@](C)(c3ccc(-c4cnc(N)nc4)cc3)C3CC3)no2)cn1: -12.8%
CN1C(=O)[C@@H](N2CCc3cn(Cc4ccccc4)nc3C2=O)COc2ccccc21: 5.21%
CC(=O)c1c(NS(C)(=O)=O)c2cc(-c3ccc(Cl)cc3)c(-c3ccc(Cl)cc3Cl)nc2n(C)c1=O: 25.6%

Excerpt of the above (set 4):
CC1=C(C#N)C(c2ccc3c(c2)c(NC(=O)c2ccccc2C)nn3C)C(C#N)=C(C)N1: -7.79%
CC1=C(C#N)[C@@H](c2ccc3[nH]nc(C)c3c2)C(C#N)=C(c2ccc(Cl)cc2)N1: 4.66%
CC(=O)N1CCC(c2ccc(C(=O)NC(=N)N)cc2C(F)(F)F)CC1: -9.29%
C[C@@H]1CN(c2cc(-c3nn(C)c4ccc(OC5(C)CC5)cc34)ncn2)C[C@H](C)O1: 5.75%
COCc1nc2cnc3cc(-c4c(C)noc4C)c(OC[C@H]4CCNC4)cc3c2n1[C@H](C)c1ccccc1: 4.82%
CC(C)(O)c1cncc(-c2nc3ccc(F)cc3n2C2CC2)c1: 59.4%
O=C(NC[C@@H]1[C@H]2CN(C(=O)OCc3cc(C(F)(F)F)cc(C(F)(F)F)c3)C[C@@H]12)c1ccc2[nH]nnc2c1: 13.3%
CN([C@@H]1CCc2c(CC(=O)O)c3cc(S(C)(=O)=O)ccc3n2C1)S(=O)(=O)c1ccc(F)cc1: -6.18%
COc1nc2ccc([C@@](O)(c3ccccc3)C3CCN(C(C)=O)CC3)cc2c(Cl)c1Cc1ccc(-n2cccn2)cc1: 15.2%
